# Literature values as cited in several papers.
# Each line is one published result; not all experiments were run side by side.
Structure (SMILES),tested on,assay,test system,setting,how to read,quantity,result
O=C1c2ccccc2-c2c1c1ccc([N+](=O)[O-])cc1c(=O)n2C[C@H](O)[C@@H](O)[C@H](O)[C@H](O)CO,DU-145,cell growth,prostate cancer,,,GI50,4.76 µM
C=C[C@@H]1C[C@]1(NC(=O)[C@@H]1C[C@@H](Oc2cc(-c3ccccc3)nc3cc(OC)ccc23)CN1C(=O)[C@@H](NC(=O)OC(C)(C)C)C(C)(C)C)C(=O)NS(=O)(=O)C1CC1,,,rat,"oral, 20 mg/kg oral, 5 mg/kg iv",,oral bioavailability,9%
COCCOCCOCCOCCC(=O)NCc1cc(CNC(=O)CCOCCOCCOCCOC)cc(-c2cc3cc4nc(c(OC)c5[nH]c(cc6nc(cc2[nH]3)CC6(C)C)cc5-c2cc(CNC(=O)CCOCCOCCOCCOC)cc(CNC(=O)CCOCCOCCOCCOC)c2)CC4(C)C)c1,,,DMF,room temperature,,Qy absorption maximum,729 nm
CC(=O)O[C@H]1C2=C(C(=O)C(O)=C(C(C)C)C2=O)[C@@]2(C)CCCC(C)(C)[C@@H]2[C@@H]1O,MOLT-3,,,,,GI50,10 to 30 µM
CN1CCN(c2cc(-c3ccccc3CO)c(N(C)C(=O)C(C)(C)c3cc(C(F)(F)F)cc(C(F)(F)F)c3)cn2)CC1,,,"healthy volunteers, plasma","oral, dose not given, netupitant-palonosetron, fasted",,Tmax,13.9 h
CC(=O)O[C@H]1C2=C(C(=O)C(OC(=O)c3ccc(Cl)cc3)=C(C(C)C)C2=O)[C@@]2(C)CCCC(C)(C)[C@@H]2[C@@H]1OC(=O)c1ccc(Cl)cc1,MOLT-3,,,,,GI50,> 30 µM
Cc1ccccc1-c1cc(N2CC[N+](C)([O-])CC2)ncc1N(C)C(=O)C(C)(C)c1cc(C(F)(F)F)cc(C(F)(F)F)c1,,,systemic circulation,,baseline: metabolite over netupitant,exposure ratio,14%
CC(=O)OC1=C(C(C)C)C(=O)C2=C(C1=O)[C@@]1(C)CCCC(C)(C)[C@@H]1[C@H](OC(C)=O)[C@H]2OC(C)=O,HL-60,cell growth,,,,GI50,5 to 10 µM
O=C1c2ccccc2-c2c1c1ccc([N+](=O)[O-])cc1c(=O)n2C[C@H](O)CO,OVCAR-3,cell growth,,ovarian cancer panel,,GI50,0.309 µM
Cc1ccccc1-c1cc(N2CCNCC2)ncc1N(C)C(=O)C(C)(C)c1cc(C(F)(F)F)cc(C(F)(F)F)c1,,,"healthy volunteers, plasma","oral, 300 mg, fed, fixed-dose combination, with: palonosetron 0.5 mg",,AUC(0-inf),6700 ng·h/mL
